Measurements from different studies.
Lines come from different studies, so protocols differ. ± gives the spread as reported. ≈ marks a conversion by molar mass, not a printed value.

`COCOC[C@H]1O[C@H](O[C@H]2[C@H](O[C@@H]3O[C@H](CO)[C@@H](O[C@H]4O[C@@H](CN)[C@@H](O)[C@H](O)[C@H]4N)[C@H]3O)[C@@H](O)[C@H](N)C[C@@H]2N)[C@H](N)[C@@H](O)[C@@H]1OCOC` gave an IC50 of 80.4 ± 20.2 µg/mL (≈ 114 µM) (Mycobacterium smegmatis ribosome A1408G; translation, cell-free luciferase synthesis).
With `CCCCCCCCOCc1cn(CC2=CC[C@@H]3C(C(=O)OC)=CO[C@@H](O)[C@H]23)nn1` the viability was 53.7 ± 2.5% (SK-N-SH; neuroprotection, MTT; 0.3 µM, 24 h, added: 250 µM H2O2).
`C[C@@H](NC(=O)[C@@H](CCC(N)=O)NC(=O)[C@@H](C)NC(=O)[C@@H](CCCCN)NC(=O)[C@@H](CCC(N)=O)NC(=O)[C@@H](C)NC(=O)[C@@H](CCCCN)NC(=O)[C@@H](CCC(N)=O)NC(=O)[C@@H](C)NC(=O)[C@@H](CCC(N)=O)NC(=O)[C@@H](CCCCN)NC(=O)[C@@H](C)NC(=O)[C@@H](CCC(N)=O)NC(=O)[C@@H](CCCCN)NC(=O)[C@@H](C)NC(=O)[C@@H](CCC(N)=O)NC(=O)[C@@H](C)NC(=O)[C@@H](CCCCN)NC(=O)[C@@H](CCC(N)=O)NC(=O)[C@@H](C)NC(=O)[C@@H](CCCCN)NC(=O)[C@@H](CO)NC(=O)[C@@H](Cc1ccc(O)cc1)NC(=O)CNC(=O)CNC(=O)CN)C(=O)N[C@H](CCCCN)C(=O)N[C@H](CCC(N)=O)C(=O)N[C@H](C)C(=O)N[C@H](CCCCN)C(=O)N[C@H](CCC(N)=O)C(=O)O` has a binding ratio of 0.035 (human ALκ4 amyloid extract; 1 h, room temperature; baseline: 1 M NaCl over PBS).
`O=C1CC(=O)N(c2ccccc2)c2cc(Cl)ccc2N1` has an ED50 antihyperalgesia of 3.1 ± 0.9 mg/kg (mechanical hyperalgesia, electronic von Frey; GABAA α1 H→R mutant mouse, CCI; oral).
For `COC(=O)C1=CO[C@@H](OC(C)=O)[C@@H]2C(Cn3cc(CCCN4C(=O)c5ccccc5C4=O)nn3)=CC[C@H]12`, the viability was 52.9 ± 0.7% (SK-N-SH; neuroprotection, MTT; 0.15 µM, 24 h, added: 250 µM H2O2).
`CCCCCCCCC(=O)NCc1ccc(O)c(OC)c1` gave an IC50 of 0.136 µg/mL (≈ 0.462 µM) (mAb 4-AT4; antibody binding, indirect competitive ELISA; added: coating antigen hapten 2-OVA).
`COc1ccc(F)cc1S(=O)(=O)Nc1cnc2c(c1)C(=O)NCCO2`: “duration of ALP inhibition” at most 6 h (alkaline phosphatase; mouse, plasma; oral, dose not given).
`CC(C)CC(O)(CC(C)C)c1cn(C(=O)N2CCCC2)nn1` has a protein level of 1.1 ± 0.04 (mouse T-cells; SILAC proteomics, refers to: NIBAN; 1 nM, 6 h, unit not given; baseline: DMSO).
`COC(=O)C1=CO[C@@H](O)[C@@H]2C(Cn3cc(CN4C(=O)c5ccccc5C4=O)nn3)=CC[C@H]12` gave a viability of 72.7 ± 1.5% (SK-N-SH; neuroprotection, MTT; 0.15 µM, 24 h, added: 250 µM H2O2).
`CCCO[C@H]1[C@H](O)[C@@H](N)[C@@H](O[C@H]2[C@H](O[C@@H]3O[C@H](CO)[C@@H](O[C@H]4O[C@@H](CN)[C@@H](O)[C@H](O)[C@H]4N)[C@H]3O)[C@@H](O)[C@H](N)C[C@@H]2N)O[C@@H]1CO` gave an IC50 of 195 ± 57.2 µg/mL (≈ 296 µM) (ribosome with mitochondrial A site; luciferase translation, cell-free translation).

Repeated from above:
`C[C@@H](NC(=O)[C@@H](CCC(N)=O)NC(=O)[C@@H](C)NC(=O)[C@@H](CCCCN)NC(=O)[C@@H](CCC(N)=O)NC(=O)[C@@H](C)NC(=O)[C@@H](CCCCN)NC(=O)[C@@H](CCC(N)=O)NC(=O)[C@@H](C)NC(=O)[C@@H](CCC(N)=O)NC(=O)[C@@H](CCCCN)NC(=O)[C@@H](C)NC(=O)[C@@H](CCC(N)=O)NC(=O)[C@@H](CCCCN)NC(=O)[C@@H](C)NC(=O)[C@@H](CCC(N)=O)NC(=O)[C@@H](C)NC(=O)[C@@H](CCCCN)NC(=O)[C@@H](CCC(N)=O)NC(=O)[C@@H](C)NC(=O)[C@@H](CCCCN)NC(=O)[C@@H](CO)NC(=O)[C@@H](Cc1ccc(O)cc1)NC(=O)CNC(=O)CNC(=O)CN)C(=O)N[C@H](CCCCN)C(=O)N[C@H](CCC(N)=O)C(=O)N[C@H](C)C(=O)N[C@H](CCCCN)C(=O)N[C@H](CCC(N)=O)C(=O)O` has a binding ratio of 0.035 (human ALκ4 amyloid extract; 1 h, room temperature; baseline: 1 M NaCl over PBS).
